Experimental data collected from several papers.
Parts stem from different laboratories: compare values within a part only. Substitutions count along the parent as printed.

Series 1
Target: CCNA2, cyclin fold, Cln2 fusion (human)
Technique: yeast growth competition, sequencing
Matrix: yeast
Setting: weak parent motif
Reference: not given
Direction: higher = stronger binding
Starting sequence: MASTL docking peptide (human); PMIAKNLMCELDE
Under “normalised enrichment score”, `D12M` is recorded as 0.319.
`L11Q` — result for “normalised enrichment score”: -0.0646.
`I3Q`: “normalised enrichment score” -0.177.
For `N6R`, “normalised enrichment score” read -0.047.
`L11N`: “normalised enrichment score” -0.355.
`E10I` — result for “normalised enrichment score”: 0.154.
`C9P` — result for “normalised enrichment score”: 0.0158.
For `L11W`, “normalised enrichment score” read 0.661.
Under “normalised enrichment score”, `K5L` is recorded as -0.34.
`D12C` — result for “normalised enrichment score”: -0.199.
Under “normalised enrichment score”, `C9S` is recorded as 0.0438.
`I3D`: “normalised enrichment score” -0.63.
For `I3V`, “normalised enrichment score” read -0.131.
`K5E`: “normalised enrichment score” -0.3.

Series 2
Target: Sal-like protein 4, full length isoform A (SALL4, Homo sapiens, UniProt Q9UJQ4, residues 1-1053)
Sequence of UniProt Q9UJQ4 (whole entry, looked up): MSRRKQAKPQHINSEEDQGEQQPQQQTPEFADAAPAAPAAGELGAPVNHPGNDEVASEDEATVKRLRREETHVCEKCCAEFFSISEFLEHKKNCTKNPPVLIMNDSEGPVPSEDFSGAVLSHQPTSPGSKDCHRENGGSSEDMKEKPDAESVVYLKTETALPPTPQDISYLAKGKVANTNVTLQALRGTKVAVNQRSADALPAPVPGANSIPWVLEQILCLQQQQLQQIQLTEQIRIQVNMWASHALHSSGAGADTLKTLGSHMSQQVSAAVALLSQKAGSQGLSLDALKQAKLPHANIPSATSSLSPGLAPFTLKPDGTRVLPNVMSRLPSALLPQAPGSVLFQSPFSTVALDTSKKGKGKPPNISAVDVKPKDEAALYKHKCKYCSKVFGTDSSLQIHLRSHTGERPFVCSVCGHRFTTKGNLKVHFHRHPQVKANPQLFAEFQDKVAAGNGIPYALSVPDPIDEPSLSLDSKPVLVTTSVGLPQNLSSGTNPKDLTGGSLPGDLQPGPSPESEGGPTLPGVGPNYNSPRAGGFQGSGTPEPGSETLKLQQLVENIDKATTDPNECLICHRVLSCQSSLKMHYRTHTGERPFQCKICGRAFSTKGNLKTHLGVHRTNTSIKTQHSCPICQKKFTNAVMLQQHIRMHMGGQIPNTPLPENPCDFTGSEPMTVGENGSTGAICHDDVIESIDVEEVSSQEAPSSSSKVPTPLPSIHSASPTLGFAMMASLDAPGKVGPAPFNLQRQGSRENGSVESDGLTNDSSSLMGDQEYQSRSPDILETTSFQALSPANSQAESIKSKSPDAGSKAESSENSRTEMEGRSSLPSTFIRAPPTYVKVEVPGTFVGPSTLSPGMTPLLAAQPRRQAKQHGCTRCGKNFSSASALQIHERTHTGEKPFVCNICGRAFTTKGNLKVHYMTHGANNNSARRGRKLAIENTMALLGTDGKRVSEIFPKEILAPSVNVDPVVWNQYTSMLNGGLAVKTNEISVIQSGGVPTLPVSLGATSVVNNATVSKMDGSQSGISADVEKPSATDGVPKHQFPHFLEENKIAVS
Technique: universal PBM
Form: double-stranded DNA, one strand shown
Matrix: in vitro
Tested at: 600 nM
Setting: 8-mer, flanks averaged, mean of replicates
Direction: higher = stronger binding
For `ATCGCTTA`, the E-score was -0.00697.
`CATGTTAC` gave an E-score of 0.123.
`ATGGAAGA` gave an E-score of 0.244.
The E-score of `CCAAACCC` is reported as -0.0496.
The E-score of `CACTACAG` is reported as -0.0162.
`ACCACAGA` has an E-score of -0.00285.
With `ATAGTATG` the E-score was 0.292.
For `ACAATACT`, the E-score was 0.26.
With `ACAAAGCG` the E-score was 0.0066.
`CCTGTCGC` has an E-score of -0.287.
For `CCGCCATC`, the E-score was -0.313.
`AGGTACCA` gave an E-score of -0.161.
For `CTAATGGC`, the E-score was -0.033.
With `GAGCAAGC` the E-score was -0.358.
With `AGGAAGCA` the E-score was -0.108.
`TACATGGA` gave an E-score of 0.147.
`CAATATCC` has an E-score of 0.142.
The E-score of `ATGCTGTG` is reported as 0.0257.
The E-score of `CTATGCCA` is reported as 0.1.

Series 3
Target: ABI1, truncated, D143A, DHFR fusion (Arabidopsis thaliana)
Technique: DHFR PCA, deep sequencing
Matrix: yeast
Setting: methotrexate growth selection, single substitutions
With: (+)-ABA 200 µM
Reference: wild-type fitted maximum
Direction: higher = stronger binding
Starting sequence: PYL1, truncated, DHFR fusion (Arabidopsis thaliana); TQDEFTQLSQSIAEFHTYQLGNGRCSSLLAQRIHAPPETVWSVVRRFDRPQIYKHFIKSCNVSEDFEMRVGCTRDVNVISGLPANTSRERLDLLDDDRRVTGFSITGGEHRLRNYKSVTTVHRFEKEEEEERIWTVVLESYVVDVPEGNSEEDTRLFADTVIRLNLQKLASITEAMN; partner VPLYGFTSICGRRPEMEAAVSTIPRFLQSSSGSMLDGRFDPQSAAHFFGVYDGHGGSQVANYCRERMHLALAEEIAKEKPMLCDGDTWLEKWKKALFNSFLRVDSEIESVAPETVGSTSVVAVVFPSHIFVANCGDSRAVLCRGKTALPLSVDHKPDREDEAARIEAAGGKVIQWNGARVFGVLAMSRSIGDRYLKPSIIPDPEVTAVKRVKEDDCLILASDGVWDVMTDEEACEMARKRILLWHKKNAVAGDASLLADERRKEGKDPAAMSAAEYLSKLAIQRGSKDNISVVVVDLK
`R99T`: “relative binding score” 68.9%.
Under “relative binding score”, `T119A` is recorded as 44.7%.
For `F103K`, “relative binding score” read -9.38%.
Under “relative binding score”, `S11D` is recorded as 98.7%.
For `V121S`, “relative binding score” read 7.5%.
`G71V`: “relative binding score” -6.2%.
For `D144F`, “relative binding score” read 24.4%.
Under “relative binding score”, `D97C` is recorded as 87.8%.
For `R163C`, “relative binding score” read 66.6%.
`R32P` — result for “relative binding score”: 81.2%.
Under “relative binding score”, `S9T` is recorded as 92.2%.
For `T17V`, “relative binding score” read 84.2%.
`S27Q` — result for “relative binding score”: 89.1%.
For `E109M`, “relative binding score” read 90.2%.
Under “relative binding score”, `C25E` is recorded as 23.9%.
For `V43K`, “relative binding score” read 65.8%.
For `F157T`, “relative binding score” read 1.16%.
`Y115W`: “relative binding score” 60.2%.
Under “relative binding score”, `F157Q` is recorded as 7.37%.

Single results of other studies
With `PhoQ, residues 284 288 289 292 302 303 ASHLAV` the fold induction was 3.26 (PhoP, residues 12 14 15 18 19 NQGLL (Escherichia coli, UniProt P23836); Sort-seq, measured: YFP reporter; E. coli; PhoQ-PhoP variant library, with: 10 µM Mg2+; reference: high Mg2+ state, higher = stronger signaling).

Some of these lines once more (series 3):
Under “relative binding score”, `T119A` is recorded as 44.7%.
For `R163C`, “relative binding score” read 66.6%.
`R99T`: “relative binding score” 68.9%.
Under “relative binding score”, `D97C` is recorded as 87.8%.
For `F103K`, “relative binding score” read -9.38%.
Under “relative binding score”, `C25E` is recorded as 23.9%.
`Y115W`: “relative binding score” 60.2%.
For `V43K`, “relative binding score” read 65.8%.
